Experimental data collected from several papers.
Each numbered part is a random draw from the data of one study; scales do not carry over between parts.

Sample 1 — technique: RNA Bind-n-Seq; form: RNA; sample: in vitro; tested at: not given; notes: RNA with constant flanks, ends assumed; relative to: input RNA pool; direction: higher = stronger binding
Target: RING finger protein unkempt homolog, zinc fingers 1-6, GST-SBP tag (UNK, Homo sapiens, UniProt Q9C0B0, residues 30-357)
All sequences stand within: GGGAGUUCUACAGUCCGACGAUC … CAACAGAGGAUUGAGCAUCA
Construct (chain): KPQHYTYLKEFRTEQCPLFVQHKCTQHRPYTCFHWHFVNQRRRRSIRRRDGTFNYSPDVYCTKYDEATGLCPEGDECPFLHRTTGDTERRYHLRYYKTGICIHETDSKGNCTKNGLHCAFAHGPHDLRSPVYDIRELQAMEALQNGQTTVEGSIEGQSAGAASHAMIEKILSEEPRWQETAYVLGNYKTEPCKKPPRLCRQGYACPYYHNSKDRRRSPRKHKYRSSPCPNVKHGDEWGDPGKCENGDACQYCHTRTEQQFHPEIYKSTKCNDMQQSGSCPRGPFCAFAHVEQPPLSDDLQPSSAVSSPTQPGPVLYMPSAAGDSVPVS
For `AAGAAUAUUCGAUUUCCACUGAUGACACCACAGGAUCUCAUCAAUUACGUGCAGACAGCCGAUUUCAUGAGAACAGACAAUACCUGCGUGAAUUUGCUUUUGGAAGCUAGCAAUUACCAA`, the bound/input enrichment was 0.27 ratio.
The bound/input enrichment of `UGUCUGCCUCAUUCUAAAAUUUACACAGUAGACCAUUUGUCAUCCAUGCUGUCCCACAAACCGUUUUUUGUUUACGAUUUAUGACAGGUUUAUGUUACUUCUAUUUGAAUUUCUAUAUUU` is reported as 0.292 ratio.
For `GAUGGAGCCGUCUUCUUUAACAAGGAAAGAACCAGAAACAUUGUUAAGUUUGACUUGAGGACCCGAAUCAAGAGCGGCGAGGCUAUCAUCAACUAUGCCAACUACCACGAUACGUCACCC`, the bound/input enrichment was 0.085 ratio.
The bound/input enrichment of `CUUCUCAUGACCAACUGUAUCAAGAAUGAUCUUAAUCAUAGCACGCAGUUUGUGCAGGGGCCCGCACUUUGUACCCUCGGCUGCAUGGGCUCCUCGGAGAUGUGCAGAGAUCUUGCGGGA` is reported as 0.189 ratio.
`UUCUAAAGGGCUCAAAACAAGGCACAGGCCAGCUGACUCGUGACUUGGUGUCUGUAACUGCUCCGUGGGUGCUCUGAUUUGGUGCGUGUUAUGAAGGGAGGGGGUCCCUGUACCCCUAUC` has a bound/input enrichment of 0.171 ratio.
With `AAGAUUGGGCUUAUUCAGUUUUGCUUAUCUGCUCCCAAAACAGACAUGGAUAAUCAAACCGUGGUUUCUGACUAUGCCCAGAUGGACCGAGUGCUGCGAGAAGAGAGAGCCUAUAUUUUA` the bound/input enrichment was 0.28 ratio.
`GAGGAAACAGACUACACUCCCGUUUGGUGCAUGCGCCAGGCAGGCCGUUACUUACCAGAGUUCCGGGAAACCCGGGCUGCCCAGGACUUUUUCAGCACGUGUCGCUCUCCUGAGGCCUGC` has a bound/input enrichment of 0.159 ratio.
`UCUGCUGCGUGGACAAGGACACUCUCCGAUGCCACUUCCUCAGGCCCUUUUCCAAGGAAGACCCGAUGGAGUUGGCUUUUUAUGCAAAGGUCGUUGGAUUUCAGGGUGAGCACUGAGAGC` gave a bound/input enrichment of 0.136 ratio.
With `AAACUCUCUAGCAAAACGACUGCUAAGUUAUCCACUAGUGCUAAAAGAAUUCAGAAGGAGCCCGCAGAGAUAACCCUUGAUCCUCCUCCUAACUGCAGUGCUGGGCCUAAAGGAGAUAAC` the bound/input enrichment was 0.549 ratio.
`UGGCAGAUAUUCAAAACGUCAGCAACCAAAGGCACCGGCCUUGAUGAGGCAAUGGAAUGGUCCGUUGAAACAUUAAAAAGCAGACAGUAAUUCAGUCCAUUCUUCUCCCCUGAAAUGAAG` has a bound/input enrichment of 0.179 ratio.
With `GGGAGCGCCAUCAGAACCCAGGGAAUCUUUCUGAAGCCACACUCAUCUGACACACGUACACUCCGACCUGUCUCUUCUUUUGCUUUUCAAUUUUGGAAAGGGAUCUCUGUCCAGGUCAGC` the bound/input enrichment was 0.106 ratio.

Sample 2 — technique: RNA Bind-n-Seq; form: RNA; sample: in vitro; tested at: 200 nM; notes: whole 134-nt RNA, ends assumed; together with: 150 mM LiCl; relative to: input library; direction: higher = stronger binding; library: 7-deaza-guanosine replaces G
Target: Fragile X messenger ribonucleoprotein 1, C-terminal low-complexity region (Fmr1, Mus musculus, UniProt P35922)
All sequences stand within: GGGAGUUCUACAGUCCGACGAUC … UGGAAUUCUCGGGUGUCAAGG
The log2 enrichment of `GUCCUGUGCUACACAUCGUAUGUACCGAAUCGGGUUUUUGGGUUUUUUUGGGUUUGGGAAAGUAUUAUGUUACGCCGUUCGGAUCUGCAC` is reported as -0.186.
The log2 enrichment of `UAACUUUAGAGGAGGAUCUGAUGGAUAUGGCUGUGGACGUGGAUUUGGGGAUGGCUAUAAUGGGUAUGGAGGAGGACCUGGAGGUGGCAA` is reported as 0.837.
With `CACAGACAACACGCACCCACACAGACACAGAGGGAAGGGGUUGGUAUGGGGACAGGGUGCACAGCAGGGCGGGGUAGGACCCCAGCCCCU` the log2 enrichment was -1.34.
`CCUGUGCUACACAUCGUAUGUACCGAAUCGGUUUUUUUGGGGUUUUUUUGGUUUUUUUGGGAAAGUAUUAUGUUACGCCGUUCGGAUCUG` gave a log2 enrichment of -0.173.
The log2 enrichment of `GUCCUGUGCUACACAUCGUAUGUACCGAAUCGGGGAAAAAAAGGGGAGGGGUUUGGGGAAAGUAUUAUGUUACGCCGUUCGGAUCUGCAC` is reported as -0.491.
The log2 enrichment of `UCCUGUGCUACACAUCGUAUGUACCGAAUCGGGGUGGGGUUUUUGGGGUUUUUUUGGGGAAAGUAUUAUGUUACGCCGUUCGGAUCUGCA` is reported as -0.664.
`AAGUCCUGUGCUACACAUCGUAUGUACCGAAUCGGGAAAAGGGAAAAGGAAAAGGGGAAAGUAUUAUGUUACGCCGUUCGGAUCUGCACU` gave a log2 enrichment of 0.292.
The log2 enrichment of `UCCUGUGCUACACAUCGUAUGUACCGAAUCGGCCCCCCGGGGCCCCCCGGGGCCCCCCGGAAAGUAUUAUGUUACGCCGUUCGGAUCUGC` is reported as -3.08.
`UGGCCUUGGUGGCAUGCGGGGAGGAAGAGGUGGCCUCAUGGAUCGUGGUGGUCCCGGUGGAAUGUUCAGAGGUGGCCGUGGUGGAGACAG` has a log2 enrichment of 0.772.
For `UCUCCACCUGCUGAGCUCCCCAGUUUGAGGCGGAGCACACGCCAAAAGACCACGGGCUCCUGUGCUAGUACCAGGUAAUUUGUUUUUUUU`, the log2 enrichment was 1.04.
`CUGUGCUACACAUCGUAUGUACCGAAUCGGGAAAAAAAGGGAAAAAAAGGGAAAAAAAGGGAAAGUAUUAUGUUACGCCGUUCGGAUCUG` has a log2 enrichment of 0.122.

Sample 3 — technique: protein binding microarray; form: double-stranded DNA, one strand shown; sample: in vitro; tested at: not given; relative to: not given; direction: higher = stronger binding
Target: Histone acetyltransferase KAT6A, winged helix 2, GST fusion (KAT6A, Homo sapiens, UniProt Q92794, residues 85-181)
Notes: 8-mer, flanks averaged, mean of 2 arrays, mostly near background
Target sequence (chain): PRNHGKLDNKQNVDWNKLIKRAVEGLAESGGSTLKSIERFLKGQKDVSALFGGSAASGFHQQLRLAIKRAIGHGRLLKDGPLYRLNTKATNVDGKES
For `ATTGTTAG`, the E-score was -0.0651.
The E-score of `CAGAGTTC` is reported as -0.0286.
`AACATAAC` has an E-score of 0.0193.
With `CGAGGAAG` the E-score was 0.0639.
For `CTGTCTAA`, the E-score was 0.0895.
With `CCGAACCC` the E-score was 0.0278.
The E-score of `CCCGTGGA` is reported as 0.113.
`TACCCCCA` has an E-score of -0.158.
The E-score of `ACAGGCTG` is reported as -0.0794.
With `CCGAGGGA` the E-score was 0.109.
The E-score of `GCAAGACA` is reported as 0.0299.
For `CACTTCTA`, the E-score was -0.0384.
For `CTCCATCC`, the E-score was -0.128.
The E-score of `AGCAGGCT` is reported as -0.0562.
The E-score of `ACAAAAGG` is reported as 0.0588.
With `AGGAGGTG` the E-score was -0.0801.
The E-score of `CCACCCCC` is reported as -0.128.
`ACGCTCAG` has an E-score of -0.0879.
`GCTTCGCC` has an E-score of 0.154.
For `ACTTACGA`, the E-score was -0.0946.
The E-score of `CGTTATCC` is reported as -0.163.
`ATACATCA` has an E-score of 0.0277.
`ACGGAGAC` has an E-score of 0.101.

Sample 4 — technique: RNA Bind-n-Seq; form: RNA; sample: in vitro; tested at: 365 nM; relative to: no-protein control; direction: higher = stronger binding
Target: RNA binding protein fox-1 homolog 2, RRM domain, GST-SBP tag (RBFOX2, Homo sapiens, UniProt O43251-10, residues 100-194)
Notes: natural RNA segment, single round, ends assumed
All sequences stand within: GGGAGUUCUACAGUCCGACGAUC … UGGAAUUCUCGGGUGCCAA
Residues (chain): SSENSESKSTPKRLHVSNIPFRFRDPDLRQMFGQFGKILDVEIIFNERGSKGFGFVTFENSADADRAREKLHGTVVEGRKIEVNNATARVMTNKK
Under “RBNS enrichment (R)”, `UAAAGAUAUUUAAUGUUCUGUUUAUUUAAUUGCUUCUUAAAUUGAUAUGAUUUUCUUAUAAAACAGAAAAGAAUUAUAAGAAUAUAUUGAAAAUAAAAGAAUUGAAAGGU` is recorded as 0.819.
`AAUGUCACAUGACAGAUGCCAUGAAGAAGUCAACCGAUAUAGCUUGGAUCUGUGAACCCUGUACUGCGAGAAUCACAUAGUUCCAUAUAAGUUGUCCUUAGUCUCUUGUG` — result for “RBNS enrichment (R)”: 0.314.
`UGAAAUGUGUCCACAUUCCUCUUGAGUCUUUUGAUGCAGACAAAGAAGAUAUAGCAGAAUCUACCCUUCCAGGAAGACAUACAGUUGAAAUGCUGGUCAUUUCCUUUGCA`: “RBNS enrichment (R)” 0.706.
`GUGGCUUUGCUAGGAAUGCCAGAAGAAGGGUCAGCUUGACGUCUAUAGAUCUCCACUACACUCCAGAAGCCCAUCCCUAGUCUCCAAAGCCCUGCCUCUGGGCAACUCGC` — result for “RBNS enrichment (R)”: 2.56.
`CCGCCUCCCGGGUUCACGCCGUUCUCCUGCCUCAGCCUCUCUGAGAAGCUGGGACUACAGGCGCCCGCCACCACGCCCGGCUAAUUUUUUUGUAUUUUUAGUAGAGACGG` — result for “RBNS enrichment (R)”: 0.189.
`GGCUGUUGACUGCGUAUGCCAAAAAGGGACAGGAGGCAUGGGAUAGCAGGUCUGGUGACACAGCUAGGGUCUUCCUAGCAGCUCCUCCUCCUCCCUCCCAAGGCCCCCAG`: “RBNS enrichment (R)” 0.664.
`UCCUCCCUGCUUAGAAAGCUACUUUAGAAGCCAUUGUAGCCACAGUGGAAAGUCAAGGUUUGUGUCUUUUCUACUGAGGUCUCAGAAAGAGAGAGAACAUCUCUCCGGAC`: “RBNS enrichment (R)” 0.727.
Under “RBNS enrichment (R)”, `GCUUCCUUCCGAGUCUCCCUAGCCACCCGCACUACUGGACUGUGGAAGGAAGCGUCUACAGAGAACGGUUUCCAACAUCCAUCGCUGCAGCAGACGGUGUCCCUCAGUGA` is recorded as 0.268.
Under “RBNS enrichment (R)”, `UCGGGAAGGAUGGGAAAAACUGCAGUCACCAACAAUGAUUAAUCAGCUGUUGCAGGCAGUGUCUUAAGGAGACUGGUAGGAGGAGGCAUGGAAACCCAAAGGCCGUGUGU` is recorded as 0.799.
Under “RBNS enrichment (R)”, `CACACCCGCCUUUCUUGAAUGGCUUCGUGUUACUCAGCCGUGCCCUGGCAGGAAUGGAACUCCAUCAGGGAACAGGGCAGCUCUGUUUGAAUGGGGUGAAAAACAGCAAA` is recorded as 0.742.
Under “RBNS enrichment (R)”, `AGUUCCACUGGAAUUUGACAGUUGUCUCUACAGUCAUGCAACUCGAAGUAGAAAAGAGUGCUGGACAUAGGAAGGGGGUGCUUGGUUUGAGGGGUUAAUGUGAGGCCUUU` is recorded as 0.848.
`AGUGUUCCAGUGACCAAGCCAGUCAUUCGGACACUGAUUUGCAGUGCAUUGGCAGUAAUUCACAAAUUAGUUGUUAUAUAAGUCUCUCUCAUCCCUUUCACACUAGAUUC`: “RBNS enrichment (R)” 0.373.

Excerpt of the above (sample 1):
`UUCUAAAGGGCUCAAAACAAGGCACAGGCCAGCUGACUCGUGACUUGGUGUCUGUAACUGCUCCGUGGGUGCUCUGAUUUGGUGCGUGUUAUGAAGGGAGGGGGUCCCUGUACCCCUAUC` has a bound/input enrichment of 0.171 ratio.
With `AAGAUUGGGCUUAUUCAGUUUUGCUUAUCUGCUCCCAAAACAGACAUGGAUAAUCAAACCGUGGUUUCUGACUAUGCCCAGAUGGACCGAGUGCUGCGAGAAGAGAGAGCCUAUAUUUUA` the bound/input enrichment was 0.28 ratio.
`GAGGAAACAGACUACACUCCCGUUUGGUGCAUGCGCCAGGCAGGCCGUUACUUACCAGAGUUCCGGGAAACCCGGGCUGCCCAGGACUUUUUCAGCACGUGUCGCUCUCCUGAGGCCUGC` has a bound/input enrichment of 0.159 ratio.
`UCUGCUGCGUGGACAAGGACACUCUCCGAUGCCACUUCCUCAGGCCCUUUUCCAAGGAAGACCCGAUGGAGUUGGCUUUUUAUGCAAAGGUCGUUGGAUUUCAGGGUGAGCACUGAGAGC` gave a bound/input enrichment of 0.136 ratio.
